Experimental data from different studies.
Every numbered part comes from another study and shows a few of its results, in no order.

Block 1
Target: RNA binding protein fox-1 homolog 2, RRM domain, GST-SBP tag (RBFOX2, Homo sapiens, UniProt O43251-10, residues 100-194)
Technique: RNA Bind-n-Seq
Form: RNA
Medium: in vitro
Concentration: 365 nM
Setting: natural RNA segment, single round, ends assumed
Relative to: no-protein control
Direction: higher = stronger binding
Residues (chain): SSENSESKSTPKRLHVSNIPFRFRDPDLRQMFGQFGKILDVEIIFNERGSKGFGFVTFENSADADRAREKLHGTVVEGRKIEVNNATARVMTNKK
Strand	RBNS enrichment (R)
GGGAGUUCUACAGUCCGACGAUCGACAAUGAGUAACUGGUCUACUGAACCCUUUAAUAGCAUUUUAAUGUUACUGAGUCAGGAGAUUCAUAAGUAACUAAGAAACUGGCAGGUCAUACUGGGCAACAGUGUUCUGGAAUUCUCGGGUGCCAA	0.385
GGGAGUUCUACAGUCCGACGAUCUUGCCACCACCGUCACUCAGCCCUGGGCGUAGCCGGACAGGAGGAGAGCAGUGAUGCGGAUGGGUACCCGGGCACACCAGCCCUCAGAGACCUGAGCUCUUCUGGCCACGUGGAAUUCUCGGGUGCCAA	0.281
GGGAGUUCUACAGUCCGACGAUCCUUUUUUUACAGAGGUUAUGGGAACUAAGGUCUGAUCCCUGGAAACUGAUCUUGUGUCACUUCCAAAGAAUCAUGGGCUUUUUCGAAUAAAAAAAUUUACACUUUUCAGGUGGAAUUCUCGGGUGCCAA	0.408
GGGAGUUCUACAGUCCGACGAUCUUCUGUGAUCUGCCCUGAUUAAGAUGAAUUGUGAAAUUUACAUCAAGCAAUUAUCAAAGCGGGCUGGGUCCCAUCAGAACGACCCACAUCUUUCUGUGGGUGUGAAUGUCUGGAAUUCUCGGGUGCCAA	0.278
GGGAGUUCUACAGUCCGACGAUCCAGUCUCAGGAACUGUUGUGGUGCCCCUGAGCCCACAGUCAUCUCCAGAGUCCACCUGGAAGCCUGUUCCCCUCUCCUCGGCUCCUGGUCCACCAGUGCAUGGCAGUGCCUGGAAUUCUCGGGUGCCAA	0.361
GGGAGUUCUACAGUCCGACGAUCGCUCCUUGAGGGCAGGGAUUAUAACUGUAACAUUUGUAUCACUGCACUCGCUUUAGUGCCUAGUACAGUGCUGAGCACACAGUAGGUGUUUAAUAAAUGCUUGUUAAAUUUGGAAUUCUCGGGUGCCAA	0.251
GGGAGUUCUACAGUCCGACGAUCAAAAGAUUGAUCAUCCAAAUGGCAAAUUUCUUAGAGUCCAUAACUGAUUUGAUAGAUUUUUCUUUUUAAAUAAAACUUCACAGCCUGCACAGUUGUUACGCAUACUACAUUGGAAUUCUCGGGUGCCAA	2.02
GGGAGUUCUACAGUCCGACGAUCAGUGGAUAAAACUUUAAGUCCAAUAACUUGGGGGUCAAAUGCUAAUGUUUUAUUCAAUGUAAAGGAAGACCAAACCAUGUACCUUAUGAAGACCUUUGUUUUAAGACUUCUGGAAUUCUCGGGUGCCAA	0.396
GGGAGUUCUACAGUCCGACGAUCCGGGGAGUUCCUGAAAGACUAGUUAGGGACAUUUGCUCAUCUCCUUCUGAGGCCAUCUGCAGAAAGUCCCCUGUGCCUUCUUUGGGAAGUCUCUUGUCAAUCCACAAGAAUGGAAUUCUCGGGUGCCAA	0.205
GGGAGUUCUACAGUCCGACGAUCGCAGUUGAAAUGUAGUCCCCUAGAAUCCUAAAGGCUGUUAUUCUCAUCCUAGUUCCAGGUGUAACUUGGUGGCCAGAAUUGAGAAGAGUGCCAAAUGACCACCCGUCAGGUGGAAUUCUCGGGUGCCAA	0.177
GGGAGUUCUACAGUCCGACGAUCAGCAGGCCUGGAAAUGAAUGGAACUAGUACUCCUGAGAAAUAAAUUGUAUAUCCCCCAAAUUAAAAUUUACUUCAAAGGUGUUAAAGAUUUCAUGUCCUAUAUUAAAGUAUGGAAUUCUCGGGUGCCAA	0.733
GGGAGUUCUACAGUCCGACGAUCCAUUUAUCUUGCAUUUCUUUAUUCUUUCUAAUUACCUAAAAUUCAAUAAAAGUUUAUUCAUAUAAAACAUGCUGUCAUUAAUUGUCAUAGUAGUAAUAGAUACAUGACUUUGGAAUUCUCGGGUGCCAA	0.629

Block 2
Target: Ras GTPase-activating protein-binding protein 1, RRM domain (G3BP1, Homo sapiens, UniProt Q13283)
Chain of UniProt Q13283 (whole entry, looked up): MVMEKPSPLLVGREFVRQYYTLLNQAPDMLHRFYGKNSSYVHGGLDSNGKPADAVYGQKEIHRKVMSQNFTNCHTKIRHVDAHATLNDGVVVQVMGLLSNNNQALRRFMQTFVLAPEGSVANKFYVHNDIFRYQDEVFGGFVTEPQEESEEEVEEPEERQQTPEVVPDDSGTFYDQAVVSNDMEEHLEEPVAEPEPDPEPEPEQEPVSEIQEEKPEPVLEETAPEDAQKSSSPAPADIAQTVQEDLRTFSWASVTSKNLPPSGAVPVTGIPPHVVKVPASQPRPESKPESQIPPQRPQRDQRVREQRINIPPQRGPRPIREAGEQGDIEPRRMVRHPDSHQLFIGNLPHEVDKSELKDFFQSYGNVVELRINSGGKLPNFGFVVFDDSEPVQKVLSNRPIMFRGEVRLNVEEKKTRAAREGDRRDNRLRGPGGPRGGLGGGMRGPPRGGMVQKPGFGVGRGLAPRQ
Technique: RNA Bind-n-Seq
Form: RNA
Medium: in vitro
Concentration: 1 µM
Setting: whole 134-nt RNA, ends assumed
Added: 150 mM KCl
Relative to: input library
Direction: higher = stronger binding
Strand	log2 enrichment
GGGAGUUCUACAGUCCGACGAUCGGCAGGAGGAAGAGCGCAGGCGCCGUGAAGAAGAGAUGCGGCGGCAGCAAGAAGAAAUGAUGCGGCGACAGCAGGAAGGAUUCAAGGGAAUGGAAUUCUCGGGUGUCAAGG	-0.226
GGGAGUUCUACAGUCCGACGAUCCUGUGCUACACAUCGUAUGUACCGAAUCGGGGAAAAAAAGGGAAAAAAAGGGGAAAAAAAGGAAAGUAUUAUGUUACGCCGUUCGGAUCUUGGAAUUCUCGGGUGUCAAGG	0.0594
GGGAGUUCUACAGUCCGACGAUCUGGCCCUGGUGGCAUGCGGGGAGGAAGAGGUGGCCUCAUGGAUCGUGGUGGUCCCGGUGGAAUGUUCAGAGGUGGCCGUGGUGGAGACUGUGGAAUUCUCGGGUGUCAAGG	1.37
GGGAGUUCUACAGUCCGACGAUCUCCUGUGCUACACAUCGUAUGUACCGAAUCGGGAAAAAAGGAAAAAAGGGAAAAAAGGGAAAGUAUUAUGUUACGCCGUUCGGAUCUGCAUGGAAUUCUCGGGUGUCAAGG	0.163
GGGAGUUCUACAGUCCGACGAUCCUCAAGUCCUGUGCUACACAUCGUAUGUACCGAAUCGGGGUUGGGUUGGUUGGAAAGUAUUAUGUUACGCCGUUCGGAUCUGCACUUCCAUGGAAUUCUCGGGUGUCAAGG	-0.267
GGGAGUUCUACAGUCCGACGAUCCUCAAGUCCUGUGCUACACAUCGUAUGUACCGAAUCGGGAGGGAGGGGAGGGGAAAGUAUUAUGUUACGCCGUUCGGAUCUGCACUUCCAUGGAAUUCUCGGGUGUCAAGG	1.1
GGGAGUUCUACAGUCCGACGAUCCCUGUGCUACACAUCGUAUGUACCGAAUCGGGGAAAAAAGGGAAAAAAGGAAAAAAGGGGAAAGUAUUAUGUUACGCCGUUCGGAUCUGCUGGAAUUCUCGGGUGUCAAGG	-0.0693
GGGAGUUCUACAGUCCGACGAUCUGGCCCUGGUGGCAUGCGGGGAGGAAGAGGUGGCCUCAUGGAUCGUGGUGGUCCCGGUGGAAUGUUCAGAGGUGGCCGUGGUUGAGACAGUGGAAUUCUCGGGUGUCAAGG	2.23
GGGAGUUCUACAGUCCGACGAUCUCAAGUCCUGUGCUACACAUCGUAUGUACCGAAUCGGAAAGGGAAAGGAAAGGGAAAGUAUUAUGUUACGCCGUUCGGAUCUGCACUUCCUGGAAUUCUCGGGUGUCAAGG	-0.142
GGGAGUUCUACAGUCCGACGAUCCUGUGCUACACAUCGUAUGUACCGAAUCGGGGUUUUUUUGGGGAAAGGGGAAAAAAAGGGGAAAGUAUUAUGUUACGCCGUUCGGAUCUGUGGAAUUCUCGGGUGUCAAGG	0.328
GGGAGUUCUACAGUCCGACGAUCACCAUGCAGGUGGGCAUCUUUGGGAAAAAGGGCAAGGGGGGGAUAGGGAGGGGGGUAACACUUUGGGAACAGGUGGUCCCAGGUCGUUUCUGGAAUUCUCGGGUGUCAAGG	-0.316
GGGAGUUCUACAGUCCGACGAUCGUCCUGUGCUACACAUCGUAUGUACCGAAUCGGGAAAAAGGGGAAAAAGGAAAAAGGGGAAAGUAUUAUGUUACGCCGUUCGGAUCUGCAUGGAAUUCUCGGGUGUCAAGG	0.0701
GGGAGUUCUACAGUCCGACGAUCCAAGUCCUGUGCUACACAUCGUAUGUACCGAAUCGGGGCCCGGCCCGGGGCCCGGGAAAGUAUUAUGUUACGCCGUUCGGAUCUGCACUUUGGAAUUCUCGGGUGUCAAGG	-0.981
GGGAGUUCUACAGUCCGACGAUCGCAGGAAGUAAAAACAAAUGGAAAUGCUUCGGAUAGUGGCAGGGGUGGGGGUUGCUAAGGAAAGGGUGGGAUGGGAGUGGGUAAAAAGUUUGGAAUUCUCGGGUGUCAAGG	1.18

Block 3
Target: Histone acetyltransferase KAT6A, winged helix 2, GST fusion (KAT6A, Homo sapiens, UniProt Q92794, residues 85-181)
Technique: protein binding microarray
Form: double-stranded DNA, one strand shown
Medium: in vitro
Concentration: not given
Setting: 8-mer, flanks averaged, mean of 2 arrays, mostly near background
Relative to: not given
Direction: higher = stronger binding
Target sequence (chain): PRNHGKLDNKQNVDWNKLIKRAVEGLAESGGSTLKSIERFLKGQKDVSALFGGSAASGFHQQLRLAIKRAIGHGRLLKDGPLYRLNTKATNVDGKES
Strand	E-score
ACAGCCAG	0.0459
ATCACTAG	-0.201
CATATCAG	-0.112
CGAGGGAC	-0.0232
AGCGGGTC	0.0555
GCTTCACA	-0.128
CGGAATCA	0.0558
ACACGACG	-0.0694
CGTGTCAG	0.0514
ACAAGACA	0.00348
AAGAGCAA	0.202
ACCAGTTC	-0.0112
AAAGGGCA	0.0893
GAGCTTAC	0.0252
CGTGCGAA	0.0452
ATACACTG	-0.101
AAGGACAA	-0.0114
GCTAAACA	0.133
CTCATTCA	-0.041

Block 4
Target: Phosphate system positive regulatory protein PHO4, full length, GST-tagged (PHO4, Saccharomyces cerevisiae, UniProt P07270, residues 1-312)
Technique: competition protein-binding microarray
Form: double-stranded DNA, one strand shown
Medium: in vitro
Concentration: 2 µM
Setting: whole 60-bp probe, lowest competitor level
Added: Cbf1 competitor, 0.05 µM
Direction: higher = stronger binding
Residues (chain): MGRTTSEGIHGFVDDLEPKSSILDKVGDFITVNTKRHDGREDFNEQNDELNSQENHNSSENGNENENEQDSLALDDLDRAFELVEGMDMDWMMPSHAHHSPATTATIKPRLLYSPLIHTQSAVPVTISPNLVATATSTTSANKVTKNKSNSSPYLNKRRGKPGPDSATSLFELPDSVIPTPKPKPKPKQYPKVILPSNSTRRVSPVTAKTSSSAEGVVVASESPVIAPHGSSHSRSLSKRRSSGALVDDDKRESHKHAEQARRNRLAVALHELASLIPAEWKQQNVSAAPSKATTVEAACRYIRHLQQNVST
Strand	fluorescence intensity [a.u.]
CTTTCCCGATCTTGATGTGTGGGTGTAGCACATTTGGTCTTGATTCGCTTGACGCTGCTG	5980
ATGAACCATGCCCAACACGATGTCGTTATTCACTCTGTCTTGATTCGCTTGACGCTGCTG	10600
CTAACGAAGGTTTGCGTAGTGGGTGACAAGCCAAGTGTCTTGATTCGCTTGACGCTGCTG	3970
CTAACGAAGGTTTGTCACACGACTTACAAGCCAAGTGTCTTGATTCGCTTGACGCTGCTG	5920
CATACCCAACCTTGAGCAGTGGGTGAAGATATTTGTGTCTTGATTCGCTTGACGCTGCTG	4310
TTCACTTCGGGTTTTGCCGTGCCGAACTTTTCAGATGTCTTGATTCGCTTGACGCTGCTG	4260
GCCTGTCCGTTGCTGCACATGCTTGCGTAGGGCCTTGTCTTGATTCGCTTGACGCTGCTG	10300
AAAGCGGTAATTTTTCACGTGATCTCACATATCTATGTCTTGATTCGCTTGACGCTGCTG	11200
AAATTACTAAGTTTTCACGTGAAATACCCCGTATGAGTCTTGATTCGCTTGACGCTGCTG	8970
CGTCCTAGTGATTGTTTGGTGGGTGCCATGAGGAAGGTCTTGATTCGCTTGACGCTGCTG	7920
CAGTAAACAAACTCGCACCGGTCGCCGTTGTTCTTAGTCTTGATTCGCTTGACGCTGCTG	3080
CTGGCGTCATAATTTCACGTGTTTTAATAGCCATCCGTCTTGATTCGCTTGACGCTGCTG	14100
TATTTTTCTGACGGCCACGTGAGATTCCTGGTTCGAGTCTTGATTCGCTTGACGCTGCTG	16400
GACATATTACATTTCCTCGTGCTTTTCGAAGTATTTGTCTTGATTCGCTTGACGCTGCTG	13400
GTCTTGTCTCATTGAAAGGTGGGTGTCCCCACTTCAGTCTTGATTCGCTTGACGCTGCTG	4240
AGCCAACGTTACGACCACGATGCCTATGAACACCATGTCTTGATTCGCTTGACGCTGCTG	10500
AAATTACTAAGTTGTCACCGGACTTACCCCGTATGAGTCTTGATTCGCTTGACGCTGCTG	3030
AAAATGTTAGCCCATCACGATGGAAACTTAACTGCTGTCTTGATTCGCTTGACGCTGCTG	5790

For quick reference, copied from above (block 3):
Strand	E-score
GCTTCACA	-0.128
ATCACTAG	-0.201
CGTGCGAA	0.0452
ACCAGTTC	-0.0112
ACACGACG	-0.0694
